Results gathered from unrelated publications.
Each line is one published result; not all experiments were run side by side. pIC50: −log10 of the molar value.
Cell line: EKVX

SMILES | test | setting | scale | measurement | value
CCOc1cncc(-c2ccc(NC(=O)C3(c4ccnc(NS(=O)(=O)C5CC5)n4)CCOCC3)nc2)n1 | cell growth or viability, ATP luminescence | 72 h | – | pIC50 | 6.15
Cc1ccc(C(=O)/C=C/c2ccccc2)s1 | cell growth or viability, SRB | 10 µM | – | inhibition | 17.7%
CN(C)CCN1CCN(c2ccc3nc(-c4ccc5nc(-c6ccc(C(F)(F)F)cc6)[nH]c5c4)[nH]c3c2)CC1 | SRB | 10 µM, 48 h | – | growth percent | 79%
CCCCCCCCCCCCCCCCCCOc1ccccc1CCOP(=O)([O-])OCC[N+](C)(C)C | cell growth or viability, SRB | 10 µM | – | inhibition | 0.19%
C1=[N+]2CCCC[N+]3=Cc4ccc5[n]4[Au-]23[n]2c1ccc2-c1nc2ccccc2nc1-5.F[P-](F)(F)(F)(F)F | NCI60 five-dose screen | – | – | TGI | 4 -log M
Cc1ccc([N+](=O)[O-])cc1S(=O)(=O)N(C)/N=C/c1cnc2ccc(Br)cn12 | cell growth or viability | – | – | pIC50 | 5.91
CCCC(CCC)C(=O)OCc1cn(-c2cc3ccccc3oc2=O)nn1 | NCI60 single-dose screen | 10 µM | – | growth percentage | 92.1%
O=C(Nc1nnc2c1c(-c1ccc(Cl)cc1)nc1sc(=Cc3ccco3)c(=O)n12)c1ccccc1 (mixture of isomers) | SRB | 10 µM, NCI60 single-dose screen | relative to: untreated | cell growth | 53.8%

Excerpt of the above:
SMILES | test | setting | scale | measurement | value
Cc1ccc(C(=O)/C=C/c2ccccc2)s1 | cell growth or viability, SRB | 10 µM | – | inhibition | 17.7%
